{"data": "Measured values of several laboratories", "note": "Each numbered part is a random draw from the data of one study; scales do not carry over between parts."}
{"data": "Block 1", "target": "Histone acetyltransferase KAT6A, winged helix 2, GST fusion (KAT6A, Homo sapiens, UniProt Q92794, residues 85-181)", "method": "protein binding microarray", "molecule type": "double-stranded DNA, one strand shown", "sample": "in vitro", "tested at": "not given", "setting": "8-mer, flanks averaged, mean of 2 arrays, mostly near background", "baseline": "not given", "reading": "higher = stronger binding", "Residues (chain)": "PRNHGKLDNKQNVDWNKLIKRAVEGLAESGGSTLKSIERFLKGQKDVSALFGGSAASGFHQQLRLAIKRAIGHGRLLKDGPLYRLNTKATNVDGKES"}
{"Sequence": "GTCCCCCA", "E-score": -0.0792}
{"Sequence": "AGATAACG", "E-score": -0.0945}
{"Sequence": "GATTCCTA", "E-score": -0.0659}
{"Sequence": "ATTCAACA", "E-score": 0.0208}
{"Sequence": "CGGCCACC", "E-score": 0.169}
{"data": "Block 2", "target": "Interferon regulatory factor 5, full length, phosphomimetic (IRF5, Homo sapiens, UniProt Q13568-2, residues 1-514, S451D/S453D/S456D/S462D)", "method": "protein-binding microarray", "molecule type": "double-stranded DNA, one strand shown", "sample": "in vitro", "tested at": "940 nM top", "setting": "60-bp whole probe", "together with": "salmon DNA 0.4 mg/ml", "baseline": "random background probes", "reading": "higher = stronger binding"}
{"Sequence": "GCCTAGCACTTAGGACTGCTACTGCTTGAGTGCTAGGTCTTGATTCGCTTGACGCTGCTG", "fitted relative affinity [z-score]": -0.32}
{"Sequence": "GCCTAGCACGATGAACTGGGGTATCGAGACGTGCTAGTCTTGATTCGCTTGACGCTGCTG", "fitted relative affinity [z-score]": 1.16}
{"Sequence": "GCCTAGCACTCAGATATAGGATAACGAGCCGTGCTAGTCTTGATTCGCTTGACGCTGCTG", "fitted relative affinity [z-score]": -0.426}
{"Sequence": "GCCTAGCACTTAGGACGGGACTTTCGGTTAGTGCTAGTCTTGATTCGCTTGACGCTGCTG", "fitted relative affinity [z-score]": 3.02}
{"data": "Block 3", "target": "Sal-like protein 4, full length isoform B (SALL4, Homo sapiens, UniProt Q9UJQ4-2, residues 1-616)", "method": "universal PBM", "molecule type": "double-stranded DNA, one strand shown", "sample": "in vitro", "tested at": "not given", "setting": "8-mer, flanks averaged, mean of replicates", "reading": "higher = stronger binding", "Target sequence (chain)": "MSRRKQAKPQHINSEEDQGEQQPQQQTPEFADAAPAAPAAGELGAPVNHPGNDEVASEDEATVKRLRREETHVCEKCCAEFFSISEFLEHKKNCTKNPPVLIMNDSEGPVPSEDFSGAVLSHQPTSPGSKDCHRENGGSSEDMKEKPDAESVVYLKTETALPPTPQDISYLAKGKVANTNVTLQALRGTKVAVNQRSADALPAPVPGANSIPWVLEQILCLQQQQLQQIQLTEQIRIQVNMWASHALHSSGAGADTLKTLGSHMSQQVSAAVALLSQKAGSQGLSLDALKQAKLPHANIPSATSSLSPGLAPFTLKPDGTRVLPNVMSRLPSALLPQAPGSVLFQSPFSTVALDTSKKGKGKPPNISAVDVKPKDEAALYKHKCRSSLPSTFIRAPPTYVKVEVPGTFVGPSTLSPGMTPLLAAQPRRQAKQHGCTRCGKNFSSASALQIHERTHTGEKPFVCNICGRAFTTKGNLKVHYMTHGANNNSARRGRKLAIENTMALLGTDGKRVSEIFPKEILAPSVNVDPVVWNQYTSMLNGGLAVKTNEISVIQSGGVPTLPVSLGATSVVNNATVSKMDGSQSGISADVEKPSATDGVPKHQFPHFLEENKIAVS"}
{"Sequence": "GCCAATAA", "E-score": 0.237}
{"Sequence": "CCAAGAGG", "E-score": -0.186}
{"Sequence": "GAACCATC", "E-score": -0.071}
{"Sequence": "CTGGAGGA", "E-score": -0.0578}
{"Sequence": "GCGCTTTA", "E-score": 0.0352}
{"Sequence": "GTGCCGGA", "E-score": -0.227}
{"data": "Mixed results"}
{"Molecule": "PhoQ, residues 284 288 289 292 302 303 ALSMDL", "target": "PhoP, residues 12 14 15 18 19 AGCRL (Escherichia coli, UniProt P23836)", "test": "Sort-seq, refers to: YFP reporter", "system": "E. coli", "conditions": "PhoQ-PhoP variant library, together with: 10 µM Mg2+", "how to read": "baseline: high Mg2+ state, higher = stronger signaling", "endpoint": "fold induction", "value": 4.54}
{"note": "Some of these lines once more (block 2):"}
{"Sequence": "GCCTAGCACTCAGATATAGGATAACGAGCCGTGCTAGTCTTGATTCGCTTGACGCTGCTG", "fitted relative affinity [z-score]": -0.426}
{"Sequence": "GCCTAGCACTTAGGACGGGACTTTCGGTTAGTGCTAGTCTTGATTCGCTTGACGCTGCTG", "fitted relative affinity [z-score]": 3.02}
